Assay results from different studies.
Compare with care: the assays were run in different laboratories. Several values in a cell are separate wells, animals, samples, runs or records.

SMILES	cell line	test	system	conditions	how to read	endpoint	result
O=C(C[Se]C(=O)c1cc2ccccc2o1)Nc1cccc(C(F)(F)F)c1	NCI60 breast subpanel	NCI60 five-dose screen				GI50	1.85 µM
COc1ccccc1-c1ccncc1C(=O)Nc1nnc(OCc2ccc(Cl)cc2)s1	DLD-1 parental			8 µM, single replicate		colony count	69 and 72 and 79 and 82
Cc1ncsc1-c1ccc(C(C)NC(=O)C2CC(O)CN2C(=O)C(NC(=O)CCCCCCCCCCN2CCCC(Nc3ncc(Cl)c(Nc4ccccc4S(=O)(=O)C(C)C)n3)C2)C(C)(C)C)cc1 (stereo not shown)	22Rv1	RNA-seq, measured: LMAN2L mRNA		concentration not given	baseline: DMSO	log2 fold change	-1.37
Cn1ncc2cc(-c3cncc(Cl)c3N3CCC4(CCNC4=O)CC3)ccc21	LS174T	microarray, measured: CXCL8		concentration not given, 4 h, gene set IL-8	baseline: untreated cells	fold change in expression	-4.69
CNS(=O)(=O)Nc1nccc(Cc2c(C)c3ccc(Oc4ncccc4F)cc3oc2=O)c1F	HLF	cell viability		7 days		IC50	> 1 µM
CCC(=CCc1c(O)cc2c(c1O)C(=O)CC(c1ccc(O)cc1)O2)CC (stereo not shown)	HeLa	flow cytometry, PI staining		12 µM, 48 h		cells in S phase	27%
CC(C)(C)c1cc(-c2ccc3cc4ccccc4nc3n2)nc(-c2ccc3cc4ccccc4nc3n2)c1.Cc1ccncc1.[Cl-].[Cl-].[Ru+2].c1ccc2cc3nc4c5cccnc5c5ncccc5c4nc3cc2c1	B16-F10	resazurin		with: light 523 nm, 20 mW, 100 J/cm2		EC50	13.7 µM
COC1CN([C@H]2CC[C@H]([C@@]3(C)Oc4c(Cl)cc(C(=O)NCc5c(SC)cc(C)[nH]c5=O)c(C)c4O3)CC2)C1	RT-4	cell growth or viability, ATP luminescence		18 days		GI50	> 10 µM
[Cl-].[Cl-].[Ru+2].c1cc(-c2ccc3cccnc3n2)nc(-c2ccc3cccnc3n2)c1.c1ccc2cc3nc4c5cccnc5c5ncccc5c4nc3cc2c1	B16-F10			visible light 100 J/cm2	baseline: dark EC50 over light EC50	phototherapeutic index	9
CSCC[C@H](N)C(=O)N[C@@H](C)C(=O)N[C@@H](CCCNC(=N)N)C(=O)N[C@@H](CCCNC(=N)N)C(=O)N[C@@H](CC(=O)O)C(=O)N[C@@H](CCCCN)C(=O)N[C@H](C(=O)N[C@@H](CC(=O)O)C(=O)N[C@@H](Cc1ccccc1)C(=O)N[C@@H](C)C(=O)N[C@@H](CCCNC(=N)N)C(=O)N[C@@H](CCCNC(=N)N)C(=O)N[C@@H](CCCNC(=N)N)C(=O)N[C@@H](CCCNC(=N)N)C(=O)NCCCCCC(=O)NCCCCC(NC(=O)CCCCCNC(=O)[C@H](CCCNC(=N)N)NC(=O)[C@H](CCCNC(=N)N)NC(=O)[C@H](CCCNC(=N)N)NC(=O)[C@H](CCCNC(=N)N)NC(=O)[C@H](C)NC(=O)[C@H](Cc1ccccc1)NC(=O)[C@H](CC(=O)O)NC(=O)[C@@H](NC(=O)[C@H](CCCCN)NC(=O)[C@H](CC(=O)O)NC(=O)[C@H](CCCNC(=N)N)NC(=O)[C@H](CCCNC(=N)N)NC(=O)[C@H](C)NC(=O)[C@@H](N)CCSC)[C@@H](C)O)C(=O)NCCCCC(NC(=O)C(CCCCNC(=O)CCCCCNC(=O)[C@H](CCCNC(=N)N)NC(=O)[C@H](CCCNC(=N)N)NC(=O)[C@H](CCCNC(=N)N)NC(=O)[C@H](CCCNC(=N)N)NC(=O)[C@H](C)NC(=O)[C@H](Cc1ccccc1)NC(=O)[C@H](CC(=O)O)NC(=O)[C@@H](NC(=O)[C@H](CCCCN)NC(=O)[C@H](CC(=O)O)NC(=O)[C@H](CCCNC(=N)N)NC(=O)[C@H](CCCNC(=N)N)NC(=O)[C@H](C)NC(=O)[C@@H](N)CCSC)[C@@H](C)O)NC(=O)CCCCCNC(=O)[C@H](CCCNC(=N)N)NC(=O)[C@H](CCCNC(=N)N)NC(=O)[C@H](CCCNC(=N)N)NC(=O)[C@H](CCCNC(=N)N)NC(=O)[C@H](C)NC(=O)[C@H](Cc1ccccc1)NC(=O)[C@H](CC(=O)O)NC(=O)[C@@H](NC(=O)[C@H](CCCCN)NC(=O)[C@H](CC(=O)O)NC(=O)[C@H](CCCNC(=N)N)NC(=O)[C@H](CCCNC(=N)N)NC(=O)[C@H](C)NC(=O)[C@@H](N)CCSC)[C@@H](C)O)C(N)=O)[C@@H](C)O (stereo partly shown)	mouse C57BL/6 BMMs			0.3 µM, 3 days, with: RANKL	baseline: untreated control	osteoclast formation	34%
CCN(CC)CC(=O)Nc1cccc(-n2cc(-c3ccc4ccc(-c5cn(-c6cccc(NC(=O)CN(CC)CC)c6)nn5)cc4c3)nn2)c1	RCC4	PCR angiogenesis array, measured: TGFB1		5 x IC50, 2 h, normoxia	baseline: untreated	fold regulation	1.01 fold
CC(C)c1ccc(N(C)c2ccc3c(c2)OCC[C@H]3CNc2cnccc2C(=O)O)cc1	SUP-T1	cell viability, CellTiter-Glo		7 days		IC50	3.33 µM
Cc1nc(Nc2ncc(C(=O)Nc3c(C)cccc3Cl)s2)cc(N2CCN(C(=O)CN)CC2)n1	KU812	flow cytometry		concentration not given, 24 h		early apoptotic cells	40.1% and 43.7% and 44.8%
CCCCCCCCCCCC(=O)N[C@@H](CO)C[C@@H](O)c1cccc(CCCCCC)c1	HeLa	HPLC-MS-MS lipidomics, measured: C20 SM and ceramide		1 µM, 24 h	baseline: SM over Cer	SM/Cer ratio	20 ,0
CCOc1cncc(-c2ccc(NC(=O)C3(c4ccnc(NS(=O)(=O)C5CC5)n4)CCOCC3)nc2)n1	renal cancer	cell viability, CellTiter-Glo	DMSO 0.1%	72 h, line code 393		IC50	10 µM
CN1CCCNC(=O)c2cccc(c2)C(=O)NCCCN(C)CCCNc2cccc3c2C(=O)c2cccc(c2C3=O)NCCC1	SAS	RNA-Seq, measured: EBAG9 mRNA		1 µM, 6 h	baseline: untreated cells	log2 fold change	0.554
[BH3-][P+]1(c2ccccc2)CCCCC1	HCT-116	MTT		72 h	baseline: IC50 HaCaT over IC50 HCT-116	selectivity index	2.03
CC(=O)N(C)Cc1cccc(-c2cc3c(c(C(F)(F)F)c2)CCCC3N(C)C(=O)CCOCCOCCC(=O)N(C)C2CCCc3c2cc(-c2cccc(CN(C)C(C)=O)c2)cc3C(F)(F)F)c1 (stereo not shown)	CHO	immunoblot, measured: GADD34		20 µM		time to peak induction	6 h
O=C(N1CCCC1)n1cc(-c2ccc(-c3ccccc3)cc2)nn1	mouse T cells	N-terminal labelling proteomics, measured: Larp4 N-terminal peptide		0.001 µM, 6 h	baseline: DMSO	SILAC ratio per peptide	0.9 and 0.98
CC(C)(C)c1cc(-c2ccc3cccnc3n2)nc(-c2ccc3cccnc3n2)c1.[Cl-].[Cl-].[Ru+2].c1ccc2cc3nc4c5cccnc5c5ncccc5c4nc3cc2c1	B16-F10			visible light 100 J/cm2	baseline: dark EC50 over light EC50	phototherapeutic index	13
COC(=O)c1cc(NC2=NC(=O)C(=Cc3ccc(C)cc3)S2)ccc1OC(C)=O	MCF7	GC-MS, measured: Serine		1 µM	baseline: DMSO	metabolite level	-0.51 fold change
COc1ccc(NC(=O)c2ccc3[nH]c(-c4ccc(N(C)C)cc4)nc3c2)cn1	HCEC-hTERT	IncuCyte		concentration not given, 0 h		dead cell to confluence ratio	1.98 and 1.06 and 0.746
CCN(C(=O)c1cc(F)ccc1Oc1nncnc1N1CCC2(C1)CN([C@H](CCCN(C)CCOC)C(C)C)C2)C(C)C	OVCAR-4	cell growth or viability		72 h		GI50	> 10 µM
CC1(C)C[C@@H](Nc2cccc(-c3sc(C(=O)O)c(OCC(=O)O)c3Cl)c2)CCN1S(=O)(=O)Cc1cccc(NC(=O)CN2CCC(c3ccc4c(c3)oc(=O)n4C3CCC(=O)NC3=O)CC2)c1 (stereo partly shown)	B16-F10	HTRF, measured: phospho-STAT1 Tyr701		1.1 µM, with: IFN-γ	baseline: min-max normalised	pSTAT1 level	78.6% and 81.3% and 82.1% and 78.8% and 80.8%
Cc1c(Cl)cccc1Nc1ccccc1C(=O)[Se]CC(=O)Nc1cccc(C(F)(F)F)c1	NCI60 breast subpanel	NCI60 five-dose screen				GI50	1.95 µM

A few entries again:
SMILES	cell line	test	system	conditions	how to read	endpoint	result
Cc1nc(Nc2ncc(C(=O)Nc3c(C)cccc3Cl)s2)cc(N2CCN(C(=O)CN)CC2)n1	KU812	flow cytometry		concentration not given, 24 h		early apoptotic cells	40.1% and 43.7% and 44.8%
CCC(=CCc1c(O)cc2c(c1O)C(=O)CC(c1ccc(O)cc1)O2)CC (stereo not shown)	HeLa	flow cytometry, PI staining		12 µM, 48 h		cells in S phase	27%
CC1(C)C[C@@H](Nc2cccc(-c3sc(C(=O)O)c(OCC(=O)O)c3Cl)c2)CCN1S(=O)(=O)Cc1cccc(NC(=O)CN2CCC(c3ccc4c(c3)oc(=O)n4C3CCC(=O)NC3=O)CC2)c1 (stereo partly shown)	B16-F10	HTRF, measured: phospho-STAT1 Tyr701		1.1 µM, with: IFN-γ	baseline: min-max normalised	pSTAT1 level	78.6% and 81.3% and 82.1% and 78.8% and 80.8%
